Published values gathered from unrelated publications.
FGFR3: Fibroblast growth factor receptor 3 (FGFR3, Homo sapiens, UniProt P22607)
UniProt P22607, sequence (whole entry, unmodified, looked up): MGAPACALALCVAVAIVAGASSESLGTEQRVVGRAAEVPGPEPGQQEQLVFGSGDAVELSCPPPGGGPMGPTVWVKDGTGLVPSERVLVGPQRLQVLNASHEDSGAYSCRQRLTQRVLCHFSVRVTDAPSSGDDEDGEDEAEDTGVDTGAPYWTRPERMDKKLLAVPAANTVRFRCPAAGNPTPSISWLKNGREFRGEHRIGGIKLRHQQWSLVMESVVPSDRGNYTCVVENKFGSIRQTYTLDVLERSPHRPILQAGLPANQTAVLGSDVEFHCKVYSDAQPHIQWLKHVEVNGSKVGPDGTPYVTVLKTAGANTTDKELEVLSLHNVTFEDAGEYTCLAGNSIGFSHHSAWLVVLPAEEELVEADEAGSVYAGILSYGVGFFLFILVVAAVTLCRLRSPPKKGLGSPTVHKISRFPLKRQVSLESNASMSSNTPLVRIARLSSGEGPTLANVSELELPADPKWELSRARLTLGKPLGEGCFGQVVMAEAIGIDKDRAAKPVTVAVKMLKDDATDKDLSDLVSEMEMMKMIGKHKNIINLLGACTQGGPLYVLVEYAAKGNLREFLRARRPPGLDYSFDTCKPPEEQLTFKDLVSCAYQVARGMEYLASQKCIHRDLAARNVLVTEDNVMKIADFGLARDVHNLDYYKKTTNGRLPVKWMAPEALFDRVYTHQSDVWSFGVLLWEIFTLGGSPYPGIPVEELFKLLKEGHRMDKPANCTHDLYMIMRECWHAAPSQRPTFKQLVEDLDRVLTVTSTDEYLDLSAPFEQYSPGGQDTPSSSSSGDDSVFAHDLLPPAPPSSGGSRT

| SMILES | target | assay | conditions | scale | quantity | result |
| --- | --- | --- | --- | --- | --- | --- |
| CC(C)[C@H]1NC(=O)C[C@H]2/C=C/CCSSC[C@@H](NC1=O)C(=O)N[C@H](Cc1cccc3ccccc13)C(=O)NCC(=O)O2 | FGFR3 (Homo sapiens, UniProt P22607, K650E) | enzyme activity, inhibitor | 10 µM |  | inhibition | 11.4% |
| O=C1NC(=O)c2c1c1cc(F)c[n+]3c1c1c2c2cc(O)ccc2[n]1[Ru-4]312([N]=C=S)[S+]3CC[S+]1CC[S+]2CC3 (centres unmarked) | FGFR3 | enzyme activity | 100 nM, human enzyme, together with: 10 µM ATP | relative to: untreated | remaining activity | 95% |
| C[C@H](NCc1ccc(-c2ccc(C(F)(F)F)cc2)cc1)C(N)=O | FGFR3 | cell-free assay, competition with immobilised ligand | 1 µM |  | inhibition | 6% |
| CCOC(=O)[C@@H]1Cc2c(cc([N+](=O)[O-])cc2[N+](=O)[O-])[C@H](O)[C@]12C(=O)Nc1ccc(Br)cc12 | FGFR3 | binding, competition with immobilised ligand | 0.1 µM |  | remaining binding | 75% |
| CN(/N=C/c1ccccc1C(=O)O)c1nc(-c2ccccc2Cl)cs1 | FGFR3 | enzyme activity, inhibitor | 1 µM |  | inhibition | -21.6% |
| Nc1ccc(/C=C/C(=O)N2CCc3c(oc4c(-c5ccc(F)cc5)cc(-c5ccc(C(=O)N6CCC(F)(F)CC6)cn5)cc34)C2)cn1 | FGFR3 | binding, competition with immobilised ligand | 1 µM |  | remaining binding | 100% |
| CS(C)(=O)=Nc1ccc(-c2ccc(-c3nc4cc(O[C@@H]5CO[C@H]6[C@@H]5OC[C@H]6O)[nH]c4cc3F)cc2)cc1 | FGFR3 | enzyme activity, inhibitor | 10 µM |  | inhibition | -11% |
| O=C(O)c1ccccc1/C=N/Nc1nc(-c2ccccc2Cl)cs1 | FGFR3 | enzyme activity, inhibitor | 1 µM |  | inhibition | -25.4% |

Some of these lines once more:
| SMILES | target | assay | conditions | scale | quantity | result |
| --- | --- | --- | --- | --- | --- | --- |
| Nc1ccc(/C=C/C(=O)N2CCc3c(oc4c(-c5ccc(F)cc5)cc(-c5ccc(C(=O)N6CCC(F)(F)CC6)cn5)cc34)C2)cn1 | FGFR3 | binding, competition with immobilised ligand | 1 µM |  | remaining binding | 100% |
